# Published values pooled from the literature.
# Lines come from different studies, so protocols differ. ± gives the spread as reported.
# Organism: Staphylococcus aureus
Compound,assay,test system,conditions,MIC
CCCCN1C(=O)/C(=N\NC(=N)N)c2cc(C)ccc21,"microbial growth, broth dilution",,18 h,96 µg/mL
C=C(NC(=O)C(=C)NC(=O)c1csc(C2=NC3c4csc(n4)C4NC(=O)c5csc(n5)C(C(C)(O)C(C)O)NC(=O)C5CSC(=N5)C(=CC)NC(=O)C(C(C)O)NC(=O)c5csc(n5)C3(CC2)NC(=O)C(C)NC(=O)C(=C)NC(=O)C(=C)NC(=O)C(C(C)CC)NC2C=Cc3c(C(C)O)cc(nc3C2O)C(=O)OC4C)n1)C(N)=O (stereo not shown),broth microdilution,ATCC 10537 MRSA,"18 h, 37 °C",0.01 µg/mL
C=CCO[C@H]1[C@H](O)[C@@H](N)[C@@H](O[C@H]2[C@H](O[C@@H]3O[C@H](CO)[C@@H](O[C@H]4O[C@@H](CN)[C@@H](O)[C@H](O)[C@H]4N)[C@H]3O)[C@@H](O)[C@H](N)C[C@@H]2N)O[C@@H]1CO,broth microdilution,MRSA isolate AG 038,,8 to 16 µg/mL
CNC(CC(C)C)C(=O)NC1C(=O)NC(CC(N)=O)C(=O)NC2C(=O)NC3C(=O)NC(C(=O)NC(C(=O)O)c4cc(O)cc(O)c4-c4cc3ccc4O)C(O)c3ccc(c(Cl)c3)Oc3cc2cc(c3OC2OC(CO)C(O)C(O)C2OC2CC(C)(NC(=O)CCCCCCCC[N+](C)(C)Cc3ccccc3)C(O)C(C)O2)Oc2ccc(cc2Cl)C1O (stereo not shown),"microbial growth, agar dilution",,clinical isolate,64 µg/mL
CN(C)c1cc(CNC(=O)OCC(C)(C)C)c(O)c2c1C[C@H]1C[C@H]3[C@H](N(C)C)C(O)=C(C(N)=O)C(=O)[C@@]3(O)C(O)=C1C2=O,"microbial growth, broth dilution",,,2 µg/mL
CC(C)C(O)C(NC(=O)[C@H](Cc1ccc(O)cc1)NC(=O)C(Cc1ccc(O)c(Cl)c1)[N+](C)(C)C)C(=O)N[C@@H](C)C(=O)O (stereo partly shown),,ATCC 29213,,> 100 µM
CC(CCCOC(=O)CCC[N+](C)(C)C)C1CCC2C3C(OC(=O)CCC[N+](C)(C)C)CC4CC(OC(=O)CCC[N+](C)(C)C)CCC4(C)C3CC(OC(=O)CCC[N+](C)(C)C)C12C (stereo not shown),"microbial growth, broth dilution",ATCC29213,16 h,31.3 µg/mL
CCCCO[C@H]1[C@H](O)[C@@H](N)[C@@H](O[C@H]2[C@H](O[C@@H]3O[C@H](CO)[C@@H](O[C@H]4O[C@@H](CN)[C@@H](O)[C@H](O)[C@H]4N)[C@H]3O)[C@@H](O)[C@H](N)C[C@@H]2N)O[C@@H]1CO,broth microdilution,MRSA isolate AG 044,,16 µg/mL
CCc1ccc(NC(=O)CSc2nc3ccccc3c(=O)n2-c2ccc(S(N)(=O)=O)cc2)cc1,,methicillin-resistant,"24 h, 37 °C",10 µg/mL
Cc1csc(NCc2cc(N(C)C)c3c(c2O)C(=O)C2=C(O)[C@]4(O)C(=O)C(C(N)=O)=C(O)[C@@H](N(C)C)[C@@H]4C[C@@H]2C3)n1,,"RN4250, Tet K efflux",,8 µg/mL
CCCCCCCCCCN1C(=O)/C(=N\NC(N)=S)c2cc(C)ccc21,"microbial growth, broth dilution",,18 h,> 192 µg/mL
COC(=O)CCCCc1cn(CCCNC(=O)Cc2cc(=O)oc3cc(N(C)C)ccc23)nn1,"microbial growth, broth dilution",NCTC8325,20 h,> 64 µg/mL
CN(C)c1cc(CN2CCc3ccccc3C2)c(O)c2c1C[C@H]1C[C@H]3[C@H](N(C)C)C(O)=C(C(N)=O)C(=O)[C@@]3(O)C(O)=C1C2=O,,"MRSA 5, Tet M ribosome protection",,0.5 µg/mL
Oc1c(Br)cc(Br)c2nc3cc(I)ccc3nc12,broth microdilution,MRSA 1707,"16 h, 37 °C",0.08 µM
CC(C)C[C@H](NC(=O)[C@H](CC(C)C)NC(=O)[C@H](CCCCN)NC(=O)[C@H](CC(C)C)NC(=O)[C@H](CC(C)C)NC(=O)[C@H](CCCCN)NC(=O)[C@H](CCCCN)NC(=O)[C@H](CC(C)C)NC(=O)[C@H](CC(C)C)NC(=O)[C@H](CCCCN)NC(=O)[C@H](CCCCN)NC(=O)[C@H](CC(C)C)NC(=O)[C@H](CC(C)C)NC(=O)[C@H](CCCCN)NC(=O)[C@@H](N)CC(C)C)C(N)=O,,"MSSA RN 4220, RPMI medium","24 h, 37 °C",1.9 µM
CCCCN(CCCC)CC(O)COc1c2ccoc2c(OC)c2oc(CC)cc(=O)c12 (stereo not shown),"microbial growth, broth dilution",ATCC25,19 h,256 µg/mL
C=CCOC(=O)c1ccc(NC(=O)c2ccc(NC(=O)c3ccc(NC(=O)C(CC(N)=O)NC(=O)c4ccc(NC(=O)c5ccc([N+](=O)[O-])cc5)cc4)cc3)c(OC(C)C)c2OCC=C)cc1 (stereo not shown),microbial growth,ATCC29213,,> 64 µg/mL
O=C(O)CN1C(=O)/C(=C/c2ccc(-c3ccc(N(c4ccccc4)c4ccccc4)cc3)cc2)NC1=S,broth microdilution,ATCC 25923,,3.9 µg/mL
CN(C)c1cc(CNCc2ccncc2)c(O)c2c1C[C@H]1C[C@H]3[C@H](N(C)C)C(O)=C(C(N)=O)C(=O)[C@@]3(O)C(O)=C1C2=O,,"MRSA 5, Tet M ribosome protection",,4 µg/mL
CCCCCCCCCc1nc2ccc(Cl)cc2c(=O)n1CCN,broth microdilution,RN6390B,,25 to 50 µM
CC1CCN(CCCN2/C(=C/c3cc(/C=C/c4c[nH]c5ccccc45)[n+](C)c4ccccc34)Sc3ccccc32)CC1,"microbial growth, broth dilution",ATCC43300 MRSA,,16 µg/mL
COCO[C@H]1[C@H](O)[C@@H](N)[C@@H](O[C@H]2[C@H](O[C@@H]3O[C@H](CO)[C@@H](O[C@H]4O[C@@H](CN)[C@@H](O)[C@H](O)[C@H]4N)[C@H]3O)[C@@H](O)[C@H](N)C[C@@H]2N)O[C@@H]1CO,broth microdilution,MRSA isolate AG 039,,64 µg/mL
O=C1c2ccccc2C(=O)c2c1ccc1c2C(C(=O)Nc2ccc(Br)cc2)C(=O)C1c1ccccc1 (stereo not shown),microbial growth,,,> 100 µg/mL
CCCCCCCCCc1nc2ccccc2c(=O)n1CCN,broth microdilution,RN6390B,,50 µM
CC(C)C[C@@H]1NC(=O)[C@@H](CC(C)C)NC(=O)[C@H](CCN)NC(=O)[C@@H](NC(=O)[C@H](CCN)NC(=O)[C@@H](N)[C@@H](C)O)CCNC(=O)[C@H]([C@@H](C)O)NC(=O)[C@H](CCN)NC(=O)[C@H](CCN)NC1=O,broth microdilution,"MRSA USA300, CAMHB with polysorbate-80",16 h,> 64 µg/mL
CCc1nc(N)nc(N)c1C#C[C@H](C)c1cc(-c2cc(C)nc(C)c2)ccc1Cl,broth microdilution,ATCC 43300,"18 h, 37 °C",0.156 µg/mL
CC[P+](CC)(CC)[Au-][S][C@@H]1O[C@H](COC(C)=O)[C@@H](O[C@H]2O[C@H](COC(C)=O)[C@@H](OC(C)=O)[C@H](OC(C)=O)[C@H]2OC(C)=O)[C@H](OC(C)=O)[C@H]1OC(C)=O,broth microdilution,JE2 (USA300),,0.008 µM
CN(C)c1cc(CNCc2ccccc2)c(O)c2c1C[C@H]1C[C@H]3[C@H](N(C)C)C(O)=C(C(N)=O)C(=O)[C@@]3(O)C(O)=C1C2=O,,"MRSA 5, Tet M, 50% mouse serum",,32 µg/mL
O=C1NC(=O)N(/N=C/c2ccc([N+](=O)[O-])o2)C1O (stereo not shown),"microbial growth, broth dilution",ATCC29213,18 h,50 µg/mL
CNC(CC(C)C)C(=O)NC1C(=O)NC(CC(N)=O)C(=O)NC2C(=O)NC3C(=O)NC(C(=O)NC(C(=O)O)c4cc(O)cc(O)c4-c4cc3ccc4O)C(O)c3ccc(c(Cl)c3)Oc3cc2cc(c3OC2OC(CO)C(O)C(O)C2OC2CC(C)(NC(=O)CCCCCCCCC[n+]3ccccc3)C(O)C(C)O2)Oc2ccc(cc2Cl)C1O (stereo not shown),agar dilution,MRSA clinical isolate MRSA4,,128 µg/mL
COCCOC(=O)NCc1cc(N(C)C)c2c(c1O)C(=O)C1=C(O)[C@]3(O)C(=O)C(C(N)=O)=C(O)[C@@H](N(C)C)[C@@H]3C[C@@H]1C2,,"RN4250, Tet K efflux",,16 µg/mL
NC[C@@H]1O[C@H](O[C@H]2[C@@H](O)[C@H](O[C@@H]3[C@@H](O)[C@H](N)C[C@H](N)[C@H]3O[C@H]3O[C@H](CO)[C@@H](CCO)[C@H](O)[C@H]3N)O[C@@H]2CO)[C@H](N)[C@@H](O)[C@@H]1O,,methicillin-resistant,,1 µg/mL
CN(C)c1cc(CNC2CCCC2)c(O)c2c1C[C@H]1C[C@H]3[C@H](N(C)C)C(O)=C(C(N)=O)C(=O)[C@@]3(O)C(O)=C1C2=O,,"MRSA 5, Tet M ribosome protection",,0.5 µg/mL
CCn1cc[n+](CC)[c]1[Au-]([Cl])([Cl])[Cl],broth dilution,MRSA DSM 11822,"20 h, 37 °C",1.6 ± 0.7 µM

# Some of these lines once more:
Compound,assay,test system,conditions,MIC
COCCOC(=O)NCc1cc(N(C)C)c2c(c1O)C(=O)C1=C(O)[C@]3(O)C(=O)C(C(N)=O)=C(O)[C@@H](N(C)C)[C@@H]3C[C@@H]1C2,,"RN4250, Tet K efflux",,16 µg/mL
Cc1csc(NCc2cc(N(C)C)c3c(c2O)C(=O)C2=C(O)[C@]4(O)C(=O)C(C(N)=O)=C(O)[C@@H](N(C)C)[C@@H]4C[C@@H]2C3)n1,,"RN4250, Tet K efflux",,8 µg/mL
CCCCN1C(=O)/C(=N\NC(=N)N)c2cc(C)ccc21,"microbial growth, broth dilution",,18 h,96 µg/mL
COCO[C@H]1[C@H](O)[C@@H](N)[C@@H](O[C@H]2[C@H](O[C@@H]3O[C@H](CO)[C@@H](O[C@H]4O[C@@H](CN)[C@@H](O)[C@H](O)[C@H]4N)[C@H]3O)[C@@H](O)[C@H](N)C[C@@H]2N)O[C@@H]1CO,broth microdilution,MRSA isolate AG 039,,64 µg/mL
